Measured values collected from several papers.
Protocols differ between the studies behind these lines. ± gives the spread as reported.
B1: CRYBB1 1-148 (Homo sapiens, UniProt P53674); sequence looked up; chain MSQAAKASASATVAVNPGPDTKGKGAPPAGTSPSPGTTLAPTTVPITSAKAAELPPGNYRLVVFELENFQGRRAEFSGECSNLADRGFDRVRSIIVSAGPWVAFEQSNFRGEMFILEKGEYPRWNTWSSSYRSDRLMSFRPIKMDAQE
B2: FBXO5 zinc binding region (Homo sapiens); chain SEVAKTLKKNESLKACIRCNSPAKYDCYLQRATCKREGCGFDYCTKCLCNYHTTKDCSDGKLLKASCKIG
B3: UGT1A9 (Homo sapiens, UniProt O60656); chain GKLLVVPMDGSHWFTMRSVVEKLILRGHEVVVVMPEVSWQLGRSLNCTVKTYSTSYTLEDLDREFKAFAHAQWKAQVRSIYSLLMGSYNDIFDLFFSNCRSLFKDKKLVEYLKESSFDAVFLDPFDNCGLIVAKYFSLPSVVFARGILCHYLEEGAQCPAPLSYVPRILLGFSDAMTFKERVRNHIMHLEEHLLCHRFFKNALEIASEILQTPVTEYDLYSHTSIWLLRTDFVLDYPKPVMPNMIFIGGINCHQGKPLPMEFEAYINASGEHGIVVFSLGSMVSEIPEKKAMAIADALGKIPQTVLWRYTGTRPSNLANNTILVKWLPQNDLLGHPMTRAFITHAGSHGVYESICNGVPMVMMPLFGDQMDNAKRMETKGAGVTLNVLEMTSEDLENALKAVINDKSYKENIMRLSSLHKDRPVEPLDLAVFWVEFVMRHKGAPHLRPAAHDLTWYQYHSLDVIGFLLAVVLTVAFITFKCCAYGYRKCLGKKGRVKKAHKSKTH
B4: CSF1 33-496 (Homo sapiens, UniProt P09603); chain EEVSEYCSHMIGSGHLQSLQRLIDSQMETSCQITFEFVDQEQLKDPVCYLKKAFLLVQDIMEDTMRFRDNTPNAIAIVQLQELSLRLKSCFTKDYEEHDKACVRTFYETPLQLLEKVKNVFNETKNLLDKDWNIFSKNCNNSFAECSSQDVVTKPDCNCLYPKAIPSSDPASVSPHQPLAPSMAPVAGLTWEDSEGTEGSSLLPGEQPLHTVDPGSAKQRPPRSTCQSFEPPETPVVKDSTIGGSPQPRPSVGAFNPGMEDILDSAMGTNWVPEEASGEASEIPVPQGTELSPSRPGGGSMQTEPARPSNFLSASSPLPASAKGQQPADVTGTALPRVGPVRPTGQDWNHTPQKTDHPSALLRDPPEPGSPRISSLRPQGLSNPSTLSAQPQLSRSHSSGSVLPLGELEGRRSTRDRRSPAEPEGGPASEGAARPLPRFNSVPLTDTGHERQSEGSFSPQLQES

Substance | target or system | assay | system | conditions | scale | endpoint | value
histone H3 peptide G34A, K36me2 | KDM2A 36-517 del365-449 (UniProt Q9Y2K7) | demethylation |  |  | baseline: wild-type H3K36me2 peptide, higher = less demethylation | demethylation | 3 fold reduction
PROS1 (Homo sapiens, UniProt P07225) | TFPI (Homo sapiens, UniProt P10646-1) | FXa inhibition, enhancer |  | EC50, without FV-short, with: FXa |  | enhancement of FXa inhibition | 42 nM
LWAAQRYGRELRRMSDEFVDSFKKGLPR (BAD 104-131 (Homo sapiens, UniProt Q92934); sequence looked up) | BCL2L1 1-209 Y101H/F105L/Q111G/S122I/Q125V/V126A/L130I/A142G/F146A (Homo sapiens, UniProt Q07817-1) | fluorescence polarisation | peptide |  |  | Ki | 0.26 nM
RDGAWFA |  |  | peptide, human polyclonal IgM RF STR | concentration not given, 5 µg/mL mAb II-481 coated, with: RF at 50% max binding concentration |  | inhibition | 63%
B1 (CRYBB1 1-148) | CRYBA1, Alexa Fluor 488 label (Homo sapiens, UniProt P05813) | FRET |  | pH 7.5, 37 °C, 100 mM NaCl |  | subunit exchange rate | 0.0143 ± 0.0045 min⁻¹
RCVRLHESCLGQQVPCCDPCATCYCRFFNAFCYCRKLGTAMNPCSRT (AGRP 86-132 (Homo sapiens, UniProt O00253); sequence looked up) | MC4R D189E (Homo sapiens, UniProt P32245) | cAMP, inverse agonist, AlphaScreen | HEK293 | apparent |  | inverse agonist EC50 | 4.4 nM
B2 (FBXO5 zinc binding region) | APC/C/CDH1 (Homo sapiens) | ubiquitination assay |  |  |  | Ki | > 80000 nM
CGA/LHB (Equus caballus) | LHCGR D417N (eel) | cAMP response, agonist, HTRF | CHO-K1 | 30 min, room temperature |  | EC50 | 0.254 µg/mL
B3 (UGT1A9) | Oc1ccc(C2CCCC2)cc1 | steady-state kinetics |  | pH 7.4, 37 °C |  | Vmax | 0.00108 µmol/min/mg
CALM1 fragment (Homo sapiens) | ADCY8 1191-1214, N-terminal Cys, Cy5 label (Homo sapiens, UniProt P40145) | fluorescence polarisation |  | 2 h, pH 7.4, KCl 100 mM, with: CaCl2 50 µM |  | pEC50 | 7.27
YFCHQYL |  |  | peptide, human polyclonal IgM RF CLAU | concentration not given, 5 µg/mL mAb II-481 coated, with: RF at 50% max binding concentration |  | inhibition | 10%
TPP1 fragment del NOB (human) | TERT (Homo sapiens, UniProt O14746) | direct primer extension | super-telomerase extract | with: POT1 | baseline: TPP1-N WT, higher = lower processivity | telomerase processivity decrease | 38%
FGF14 fragment, N-terminal adamantanecarbonyl, Glu tert-butyl ester, C-terminal ethyl ester (Homo sapiens) | FGF14 64-252 (Homo sapiens, UniProt Q92915-2) | SPR |  |  |  | koff | 0.0205 s⁻¹
B4 (CSF1 33-496) | CSF1R Fc fusion D1-D5 M149K (Homo sapiens, UniProt P07333) | SPR |  | pH 7.4, NaCl 0.15 M |  | koff | 0.029 s⁻¹

Some of these lines once more:
Substance | target or system | assay | system | conditions | scale | endpoint | value
B3 (UGT1A9) | Oc1ccc(C2CCCC2)cc1 | steady-state kinetics |  | pH 7.4, 37 °C |  | Vmax | 0.00108 µmol/min/mg
